# Published values gathered from unrelated publications.
# Each line is one published result; not all experiments were run side by side. Numbers after ± are the reported error.
SMILES,target or system,assay,test system,setting,how to read,endpoint,result
S=c1n(-c2ccccc2)c2c3ccccc3nc3[n+]2[n]1[Ir-3]12([S]3)([c]3ccccc3-c3sc4ccccc4[n+]31)[c]1ccccc1-c1sc3ccccc3[n+]12,MRC9,"cell viability, MTT",,"irradiation 450 nm, 15.5 mW/cm^2, 15 min",,IC50,> 50 µM
O=Cc1c(O)ccc2ccccc12,HUVEC,"RNA sequencing, measured: HMOX1",,"75 µM, 24 h",baseline: DMSO,log2 fold change,2.99
O=[N+]([O-])c1ccc(NC2=N[N+](=Cc3cccs3)[Pd-]([Cl])([Cl])[S]2)cc1,CRFK,cell growth or viability,,,,IC50,> 100 µM
C=CC(OC(C)=O)c1cc(OC)cc(OC)c1 (stereo not shown),RT-112,MTT,,24 h,,IC50,> 50 µM
C=CC(=O)N1CCCC(n2c(=O)c3ncccc3n(Cc3ccc(Oc4ccccc4)cc3)c2=O)C1 (stereo not shown),primary ALL cells,cell viability,,"72 h, less sensitive samples, MSC co-culture",,IC50,> 20 µM
CN1CCCNC(=O)c2cccc(c2)C(=O)NCCCN(C)CCCNc2cccc3c2C(=O)c2cccc(c2C3=O)NCCC1,Ca9-22,"cell growth or viability, CCK-8",,48 h,,IC50,0.4 µM
CC(C)c1cccc(C(C)C)c1-n1ccn(-c2c(C(C)C)cccc2C(C)C)c1=[Se].[Cl][Au],LoVo MDR,MTT,,72 h,,IC50,3.9 ± 1.1 µM
Cc1c(C(=O)Nc2ccn(C)n2)ncn1Cc1cccc(C(F)(F)F)c1,,"immunohistochemistry, measured: human αS aggregates","human WT αS transgenic mouse, cortex",dose not given,baseline: placebo,pS129-positive puncta,decreased
CC1CC(=O)N(CCCCN)N=C1c1ccc(NC(=O)N2Cc3ccncc3C2)cc1 (stereo not shown),A549-C4.4a,"cell viability, CellTiter-Glo",,,,IC50,0.063 µM
NNC(=O)Cn1ncc2c3ccccc3n(CC(=O)NN)c2c1=O,GMSC normal cells,"cytotoxicity, MTT",,48 h,,IC50,> 50 µM
CCCCCCN(CCCCCC)C1=[S+][Au-2]2([S]1)[c]1ccccc1-c1cccc[n+]12.F[P-](F)(F)(F)(F)F (stereo not shown),BT-333 glioblastoma,MTT,,72 h,,IC50,1.38 ± 0.03 µM
Cc1cc(-c2ccc(NC(=O)[C@H](CCCCNC(=O)CCOCCOCCC(=O)N[C@H](Cc3ccccc3)C(=O)N[C@H]3CSSC[C@@H](C(=O)N[C@H](C(=O)O)[C@@H](C)O)NC(=O)[C@H]([C@@H](C)O)NC(=O)[C@H](CCCCN)NC(=O)[C@@H](Cc4c[nH]c5ccccc45)NC(=O)[C@H](Cc4ccc(O)cc4)NC3=O)NC(=O)CN3CCN(CC(=O)O)CCN(CC(=O)O)CCN(CC(=O)O)CC3)c(C)c2)ccc1N=Nc1ccc2c(S(=O)(=O)O)cc(S(=O)(=O)O)c(N)c2c1O [lutetium-177 labelled],,,"metastatic NET patients, lymph node metastases",,,residence time,0.6 ± 0.18 h
COc1cc(CNC(=O)C[C@H](C)CCC=C(C)C)ccc1OCc1cn(-c2ccc(Cl)c(Cl)c2)nn1,IGROV-1 ovarian cancer cells,SRB,,"10 µM, 48 h",,growth percent,83.1%
CCOC(=O)c1ccc2c(c1)n(CC)[c]([Au-][Cl])[n+]2CC,RC-124 kidney epithelial,"cell proliferation, crystal violet staining",,96 h,,IC50,4 ± 2.6 µM
Cc1nn(-c2ccc(S(=O)(=O)N[C@@H](CO)CC(C)C)cc2)c2nn3nnnc3nc12,PC-3,PI/Hoechst staining,,"0.5 µM, 24 h",,necrotic cells,21 ± 4.24%
CC(C)c1cccc(C(C)C)c1-n1c2c([n+](-c3c(C(C)C)cccc3C(C)C)[c]1[Cu-][Cl])-c1cccc3cccc-2c13,C13 cisplatin-resistant,"cell viability, MTT",,72 h,,IC50,7.7 ± 0.7 µM
COc1cc(CNC(=O)C[C@H](C)CCC=C(C)C)ccc1OCc1cn(-c2cccc([N+](=O)[O-])c2)nn1,A549/ATCC,SRB,,"10 µM, 48 h",,growth,56.8%
C[C@@H]1O[C@@H](NNC(=O)Nc2ccc(S(N)(=O)=O)cc2)[C@H](O)[C@H](O)[C@H]1O,HCEC,"cell growth or viability, MTT",,96 h,,IC50,> 100 µM
Cc1ccnc(Oc2ccc(-c3c(-c4ccc(NC(=O)C(C)C)cc4)n(C)c4ncnc(N)c34)cc2F)n1,SNU-16,"cell growth or viability, ATP luminescence",,96 h,,IC50,4.87 µM
C[n+]1cn(C2OC(COP(=O)(O)OP(=O)([O-])C(Cl)(Cl)P(=O)(O)O)C(O)C2O)c2nc(N)nc(O)c21 (stereo not shown),,"cap-dependent translation, inhibitor",rabbit reticulocyte lysate,preincubated 60 min in lysate,,IC50,1.37 ± 0.01 µM
N[C@@H](CCC(=O)N[C@@H](CS[Se]Cc1ccc(-c2cc(C(F)(F)F)nn2-c2ccc(S(N)(=O)=O)cc2)cc1)C(=O)NCC(=O)O)C(=O)O,FF2441,"cell growth or viability, MTS",,,,IC50,> 100 µM
COc1ccc(/C=C/C2=[N+]3C(=C(CO)c4c(C)cc(/C=C/c5ccc(OC)cc5)n4[B-]3(F)F)C(C)=C2C=O)cc1,RPE-1,"cell growth or viability, resazurin",,dark,,IC50,> 100 µM
CC(C)=CCC1=C([O-])C(=O)c2ccccc2C1=O.CC(C)=CCC1=C([O-])C(=O)c2ccccc2C1=O.[Cu+2].c1ccc(-c2ccnc3c2ccc2c(-c4ccccc4)ccnc23)cc1,MRC5 normal fibroblasts,"cell viability, MTT",,24 h,,IC50,3.2 ± 0.1 µM
CC(=O)c1cnc(N)nc1N1CC[C@H]1c1nn2ccc(Cl)c2c(=O)n1-c1ccccc1,human CD4 T cells,"Treg differentiation, measured: IL-10",,,,IC50,0.13 µM
CC1=C2[O][Ru-]([Cl])[O+]=C2C=CN1CCCCCCCCCCCCN1C=CC2=[O+][Ru-]([Cl])[O]C2=C1C.Cc1ccc(C(C)C)cc1.Cc1ccc(C(C)C)cc1,SISO-oxo oxoplatin-resistant,crystal violet,,96 h,,IC50,2.5 ± 1.9 µM
CC(=O)N[C@@H](CC(N)=O)C(=O)NCC(=O)N[C@@H](C)C(=O)N[C@@H](C)C(N)=O,Asn-Gly peptide isomerisation to succinimide,1H NMR time course,,"pH 7.8, 55 °C",,rate constant k1,0.267 h⁻¹
Cc1cc(C=O)cc(C)c1Oc1cc(Nc2ccc(C#N)cc2)nc2cnccc12,MOLT-3,,,48 h,,IC50,9.1 ± 2 µM
CCCCCCCCC=CCCCCCCCC(=O)OCC1OC(n2ccc(N)nc2=O)C(F)(F)C1O (stereo not shown),MOLT-4/C8,cell growth,,together with: NBMPR 100 µM,,IC50,0.12 ± 0.05 µM

# Repeated from above:
SMILES,target or system,assay,test system,setting,how to read,endpoint,result
CC(=O)c1cnc(N)nc1N1CC[C@H]1c1nn2ccc(Cl)c2c(=O)n1-c1ccccc1,human CD4 T cells,"Treg differentiation, measured: IL-10",,,,IC50,0.13 µM
CC(=O)N[C@@H](CC(N)=O)C(=O)NCC(=O)N[C@@H](C)C(=O)N[C@@H](C)C(N)=O,Asn-Gly peptide isomerisation to succinimide,1H NMR time course,,"pH 7.8, 55 °C",,rate constant k1,0.267 h⁻¹
